Experimental data pooled from the literature.
Each numbered part is a random draw from the data of one study; scales do not carry over between parts.
Sequence of UniProt Q9UQM7 (whole entry, looked up): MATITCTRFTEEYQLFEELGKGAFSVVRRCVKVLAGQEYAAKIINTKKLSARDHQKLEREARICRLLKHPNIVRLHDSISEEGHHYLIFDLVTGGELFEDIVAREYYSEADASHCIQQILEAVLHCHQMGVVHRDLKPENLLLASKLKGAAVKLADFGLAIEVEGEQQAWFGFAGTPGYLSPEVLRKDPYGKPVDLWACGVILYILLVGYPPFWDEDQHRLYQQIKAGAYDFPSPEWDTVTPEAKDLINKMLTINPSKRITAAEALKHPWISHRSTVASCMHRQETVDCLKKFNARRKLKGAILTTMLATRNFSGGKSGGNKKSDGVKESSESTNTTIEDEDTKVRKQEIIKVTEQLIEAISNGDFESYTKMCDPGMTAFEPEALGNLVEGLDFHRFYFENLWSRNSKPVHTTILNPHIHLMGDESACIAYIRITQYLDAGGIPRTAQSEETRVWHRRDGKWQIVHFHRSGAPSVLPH
Sequence of UniProt P53671 (whole entry, looked up): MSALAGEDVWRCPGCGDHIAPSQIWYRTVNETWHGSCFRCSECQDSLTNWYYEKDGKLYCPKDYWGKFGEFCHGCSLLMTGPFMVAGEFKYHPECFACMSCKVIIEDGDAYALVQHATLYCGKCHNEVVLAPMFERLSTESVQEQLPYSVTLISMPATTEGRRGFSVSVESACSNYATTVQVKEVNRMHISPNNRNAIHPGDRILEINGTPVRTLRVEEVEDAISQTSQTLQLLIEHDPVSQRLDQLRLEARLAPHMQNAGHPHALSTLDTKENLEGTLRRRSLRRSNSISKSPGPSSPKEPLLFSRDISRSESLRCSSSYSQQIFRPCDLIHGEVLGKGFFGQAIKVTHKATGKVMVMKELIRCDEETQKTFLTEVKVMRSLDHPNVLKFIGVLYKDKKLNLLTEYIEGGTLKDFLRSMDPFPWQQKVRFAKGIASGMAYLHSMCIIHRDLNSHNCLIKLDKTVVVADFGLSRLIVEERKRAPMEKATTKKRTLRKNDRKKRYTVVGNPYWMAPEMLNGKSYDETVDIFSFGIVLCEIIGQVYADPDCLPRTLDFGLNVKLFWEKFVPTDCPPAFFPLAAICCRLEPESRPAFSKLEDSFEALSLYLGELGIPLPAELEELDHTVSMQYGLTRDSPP
Sequence of UniProt Q99640 (whole entry, looked up): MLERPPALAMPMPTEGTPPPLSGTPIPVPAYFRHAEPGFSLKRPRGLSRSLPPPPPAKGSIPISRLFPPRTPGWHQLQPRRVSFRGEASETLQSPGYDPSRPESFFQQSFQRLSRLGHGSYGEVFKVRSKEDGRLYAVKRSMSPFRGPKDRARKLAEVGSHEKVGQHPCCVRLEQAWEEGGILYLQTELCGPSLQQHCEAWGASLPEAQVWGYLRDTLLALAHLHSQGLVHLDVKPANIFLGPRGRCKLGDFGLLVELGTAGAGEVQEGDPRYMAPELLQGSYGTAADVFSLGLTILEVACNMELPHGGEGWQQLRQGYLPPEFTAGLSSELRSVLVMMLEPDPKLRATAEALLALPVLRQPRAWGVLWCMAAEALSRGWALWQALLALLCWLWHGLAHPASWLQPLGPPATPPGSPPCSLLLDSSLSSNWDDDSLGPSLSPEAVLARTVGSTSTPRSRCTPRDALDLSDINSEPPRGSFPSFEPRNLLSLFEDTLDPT
Sequence of UniProt O43683 (whole entry, looked up): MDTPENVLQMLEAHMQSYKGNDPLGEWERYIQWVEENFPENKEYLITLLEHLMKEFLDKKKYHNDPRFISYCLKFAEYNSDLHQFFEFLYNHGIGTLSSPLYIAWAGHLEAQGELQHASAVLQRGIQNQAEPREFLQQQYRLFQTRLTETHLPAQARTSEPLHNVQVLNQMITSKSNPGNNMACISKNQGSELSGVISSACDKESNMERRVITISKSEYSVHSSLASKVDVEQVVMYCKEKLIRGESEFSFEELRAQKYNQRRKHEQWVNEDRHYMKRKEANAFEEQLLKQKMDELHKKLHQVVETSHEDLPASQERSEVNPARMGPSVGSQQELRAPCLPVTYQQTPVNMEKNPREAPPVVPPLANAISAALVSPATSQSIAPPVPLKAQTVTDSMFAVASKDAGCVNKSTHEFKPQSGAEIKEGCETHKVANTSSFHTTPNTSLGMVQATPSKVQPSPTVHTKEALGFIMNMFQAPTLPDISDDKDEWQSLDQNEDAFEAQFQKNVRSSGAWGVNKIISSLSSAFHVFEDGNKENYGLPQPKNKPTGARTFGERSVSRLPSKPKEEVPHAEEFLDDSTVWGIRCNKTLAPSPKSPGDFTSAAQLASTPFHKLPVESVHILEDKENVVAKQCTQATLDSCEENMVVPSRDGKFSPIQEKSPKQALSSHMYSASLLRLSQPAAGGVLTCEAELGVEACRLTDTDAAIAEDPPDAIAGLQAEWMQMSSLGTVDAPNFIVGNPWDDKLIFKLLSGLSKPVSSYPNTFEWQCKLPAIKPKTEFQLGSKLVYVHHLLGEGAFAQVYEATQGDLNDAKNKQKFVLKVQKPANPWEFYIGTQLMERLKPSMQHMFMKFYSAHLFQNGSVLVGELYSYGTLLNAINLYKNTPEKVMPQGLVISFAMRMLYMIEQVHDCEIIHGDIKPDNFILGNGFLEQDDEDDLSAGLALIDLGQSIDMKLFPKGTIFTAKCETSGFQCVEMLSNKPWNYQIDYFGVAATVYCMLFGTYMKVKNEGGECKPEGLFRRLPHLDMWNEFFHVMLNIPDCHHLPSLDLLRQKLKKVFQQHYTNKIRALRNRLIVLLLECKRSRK
Sequence of UniProt P48729 (whole entry, looked up): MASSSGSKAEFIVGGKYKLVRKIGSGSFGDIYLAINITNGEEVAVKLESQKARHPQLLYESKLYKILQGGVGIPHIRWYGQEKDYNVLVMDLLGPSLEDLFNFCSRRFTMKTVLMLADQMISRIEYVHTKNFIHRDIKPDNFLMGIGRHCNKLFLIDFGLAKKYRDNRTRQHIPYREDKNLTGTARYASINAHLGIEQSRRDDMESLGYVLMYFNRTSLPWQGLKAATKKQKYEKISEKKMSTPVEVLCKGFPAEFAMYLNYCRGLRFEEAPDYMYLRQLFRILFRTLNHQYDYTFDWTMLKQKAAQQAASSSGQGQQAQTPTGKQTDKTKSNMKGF
Sequence of UniProt P35626 (whole entry, looked up): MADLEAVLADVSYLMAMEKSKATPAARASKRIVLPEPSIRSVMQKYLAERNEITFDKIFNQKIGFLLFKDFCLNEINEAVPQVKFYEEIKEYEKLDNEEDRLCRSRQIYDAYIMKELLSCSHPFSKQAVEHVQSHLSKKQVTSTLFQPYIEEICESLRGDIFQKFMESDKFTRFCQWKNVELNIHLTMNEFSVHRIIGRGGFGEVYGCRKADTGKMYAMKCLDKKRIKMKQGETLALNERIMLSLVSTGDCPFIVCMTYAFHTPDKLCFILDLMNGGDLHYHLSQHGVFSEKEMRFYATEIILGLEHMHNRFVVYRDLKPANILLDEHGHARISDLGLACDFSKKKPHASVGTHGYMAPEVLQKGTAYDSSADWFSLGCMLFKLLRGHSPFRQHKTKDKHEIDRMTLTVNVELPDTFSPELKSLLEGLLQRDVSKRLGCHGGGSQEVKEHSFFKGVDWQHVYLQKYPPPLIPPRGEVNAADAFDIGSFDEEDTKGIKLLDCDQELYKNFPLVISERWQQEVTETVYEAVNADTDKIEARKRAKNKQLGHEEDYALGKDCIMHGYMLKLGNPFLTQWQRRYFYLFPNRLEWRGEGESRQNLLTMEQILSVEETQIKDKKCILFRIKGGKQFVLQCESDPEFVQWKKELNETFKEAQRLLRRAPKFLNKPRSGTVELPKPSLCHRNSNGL
Sequence of UniProt P51817 (whole entry, looked up): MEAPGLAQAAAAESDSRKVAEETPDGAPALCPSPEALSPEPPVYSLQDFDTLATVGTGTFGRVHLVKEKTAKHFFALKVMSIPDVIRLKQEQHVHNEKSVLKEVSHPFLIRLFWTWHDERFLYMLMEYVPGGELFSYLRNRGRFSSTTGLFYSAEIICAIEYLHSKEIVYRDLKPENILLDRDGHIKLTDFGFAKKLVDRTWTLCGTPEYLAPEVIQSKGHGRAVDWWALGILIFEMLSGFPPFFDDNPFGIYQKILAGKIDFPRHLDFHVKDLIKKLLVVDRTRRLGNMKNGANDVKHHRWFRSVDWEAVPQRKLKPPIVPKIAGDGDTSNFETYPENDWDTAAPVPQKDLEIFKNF
Sequence of UniProt Q8NFD2 (whole entry, looked up): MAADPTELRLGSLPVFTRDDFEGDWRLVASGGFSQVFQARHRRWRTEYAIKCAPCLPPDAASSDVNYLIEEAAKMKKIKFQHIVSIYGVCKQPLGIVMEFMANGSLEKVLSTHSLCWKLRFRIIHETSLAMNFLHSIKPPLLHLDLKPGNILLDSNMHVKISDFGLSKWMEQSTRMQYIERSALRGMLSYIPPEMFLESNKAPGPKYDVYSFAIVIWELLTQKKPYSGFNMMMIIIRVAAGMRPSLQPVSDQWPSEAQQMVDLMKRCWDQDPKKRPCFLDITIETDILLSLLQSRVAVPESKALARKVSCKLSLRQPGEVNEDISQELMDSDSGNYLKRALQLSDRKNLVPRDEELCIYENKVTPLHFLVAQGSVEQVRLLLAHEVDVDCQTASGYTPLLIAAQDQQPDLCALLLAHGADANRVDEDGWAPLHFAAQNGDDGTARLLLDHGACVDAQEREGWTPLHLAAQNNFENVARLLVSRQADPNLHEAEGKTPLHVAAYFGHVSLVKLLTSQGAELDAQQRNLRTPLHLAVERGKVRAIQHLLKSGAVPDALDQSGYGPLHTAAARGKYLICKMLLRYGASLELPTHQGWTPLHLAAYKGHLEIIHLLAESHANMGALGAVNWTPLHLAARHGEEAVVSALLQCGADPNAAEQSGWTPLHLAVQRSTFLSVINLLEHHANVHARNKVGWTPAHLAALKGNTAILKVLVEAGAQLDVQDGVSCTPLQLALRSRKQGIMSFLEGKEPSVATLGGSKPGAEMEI

Sample 1
SMILES: CCS(=O)(=O)c1cc2cc(C[C@](O)(CC(C)(C)c3ccc(F)cc3C(N)=O)C(F)(F)F)[nH]c2cn1
Method: competition with immobilised ligand
Concentration: 1 µM
Ankyrin repeat and protein kinase domain-containing protein 1 (ANKK1, Homo sapiens, UniProt Q8NFD2); cell-free assay — remaining binding: 89%.
Serine/threonine-protein kinase MRCK beta (CDC42BPB, Homo sapiens, UniProt Q9Y5S2); cell-free assay — remaining binding: 100%.
The remaining binding was 100% (Calcium/calmodulin-dependent protein kinase type 1D (CAMK1D, Homo sapiens, UniProt Q8IU85); cell-free assay).
Tyrosine-protein kinase Fer (FER, Homo sapiens, UniProt P16591); cell-free assay — remaining binding: 96%.
Proto-oncogene tyrosine-protein kinase receptor Ret (RET, Homo sapiens, UniProt P07949); cell-free assay — remaining binding: 93%.
Mitotic checkpoint serine/threonine-protein kinase BUB1 (BUB1, Homo sapiens, UniProt O43683); cell-free assay — remaining binding: 86%.
LIM domain kinase 2 (LIMK2, Homo sapiens, UniProt P53671); cell-free assay — remaining binding: 100%.
Receptor-type tyrosine-protein kinase FLT3 (FLT3, Homo sapiens, UniProt P36888, R834Q); cell-free assay — remaining binding: 100%.
The remaining binding was 100% (Phosphorylase b kinase gamma catalytic chain, liver/testis isoform (PHKG2, Homo sapiens, UniProt P15735); cell-free assay).
Activin receptor type-2A (ACVR2A, Homo sapiens, UniProt P27037); cell-free assay — remaining binding: 100%.
It gave 92% for remaining binding (Tyrosine-protein kinase ABL1, phosphorylated (ABL1, Homo sapiens, UniProt P00519, E255K); binding).
It gave 100% for remaining binding (MAP/microtubule affinity-regulating kinase 4 (MARK4, Homo sapiens, UniProt Q96L34); cell-free assay).
It gave 100% for remaining binding (Membrane-associated tyrosine- and threonine-specific cdc2-inhibitory kinase (PKMYT1, Homo sapiens, UniProt Q99640); cell-free assay).
It gave 100% for remaining binding (cAMP-dependent protein kinase catalytic subunit PRKX (PRKX, Homo sapiens, UniProt P51817); cell-free assay).
Platelet-derived growth factor receptor alpha (PDGFRA, Homo sapiens, UniProt P16234); cell-free assay — remaining binding: 82%.
For Cyclin-dependent kinase 4 (CDK4, Homo sapiens, UniProt P11802); cell-free assay: remaining binding read 100%.
For G protein-coupled receptor kinase 3 (GRK3, Homo sapiens, UniProt P35626); cell-free assay: remaining binding read 100%.
The remaining binding was 100% (Casein kinase I isoform alpha (CSNK1A1, Homo sapiens, UniProt P48729); cell-free assay).
The remaining binding was 94% (Tyrosine-protein kinase ABL1, phosphorylated (ABL1, Homo sapiens, UniProt P00519, M351T); cell-free assay).
The remaining binding was 88% (Dual specificity tyrosine-phosphorylation-regulated kinase 1B (DYRK1B, Homo sapiens, UniProt Q9Y463); cell-free assay).
For Mitogen-activated protein kinase kinase kinase 6 (MAP3K6, Homo sapiens, UniProt O95382); cell-free assay: remaining binding read 55%.
For Calcium/calmodulin-dependent protein kinase type II subunit alpha (CAMK2A, Homo sapiens, UniProt Q9UQM7); cell-free assay: remaining binding read 94%.
Mast/stem cell growth factor receptor Kit (KIT, Homo sapiens, UniProt P10721); cell-free assay — remaining binding: 95%.
It gave 100% for remaining binding (Receptor-type tyrosine-protein kinase FLT3 (FLT3, Homo sapiens, UniProt P36888, D835H); cell-free assay).

Sample 2
Target: Calcium/calmodulin-dependent protein kinase type II subunit alpha (CAMK2A, Homo sapiens, UniProt Q9UQM7)
Read-out: enzyme activity
Mode: inhibitor
Concentration: 10 µM
CC(C)(O)[C@@H]1CC[C@](C)([C@H]2[C@@H](O)C[C@@]3(C)[C@@H]4C[C@H](O[C@@H]5O[C@H](CO)[C@@H](O)[C@H](O)[C@H]5O)[C@H]5C(C)(C)[C@@H](O[C@@H]6OC[C@@H](O)[C@H](O)[C@H]6O)CC[C@@]56C[C@@]46CC[C@]23C)O1 has an inhibition of 22%.
With CCOC(=O)c1c(N)sc2c1CCN(Cc1ccccc1)C2 the inhibition was -10%.
The inhibition of OCc1ccc(O)cc1 is reported as -16%.
For O=C1/C(=C2\Nc3ccc(S(=O)(=O)O)cc3C2=O)Nc2ccc(S(=O)(=O)O)cc21, the inhibition was -6%.
For C[C@H](O)[C@H]1CC[C@H]2[C@@H]3CC[C@@H]4C[C@H](O)CC[C@]4(C)[C@H]3CC[C@]12C, the inhibition was 21%.
CC1(C)CC[C@]2(CO)CC[C@]3(C)C(=CC[C@@H]4[C@@]5(C)CC[C@H](O)C(C)(C)[C@@H]5CC[C@]43C)[C@@H]2C1 has an inhibition of -1%.
Nc1ncnc2c1ncn2[C@@H]1O[C@H](CO)[C@@H](O)[C@H]1OP(=O)(O)O gave an inhibition of -49%.
C[C@@]12C=Cc3occc3[C@H]1CC[C@@]13C[C@@H](CC[C@H]12)[C@@](O)(CO)C3 gave an inhibition of -57%.
Cc1c(=O)c(=O)c2c3c[nH]c4c(C)c(=O)c(=O)c(c5c[nH]c1c52)c43 gave an inhibition of -17%.
With O=C(O)COCCN1CCN([C@H](c2ccccc2)c2ccc(Cl)cc2)CC1 the inhibition was 3%.
O=C(c1ccc(F)c(F)c1Nc1ccc(I)cc1F)N1CC(O)([C@@H]2CCCCN2)C1 (racemic) gave an inhibition of -0.09%.

Sample 3
Method: PRP chromatography estimate
Sample: 1,9-decadiene/PBS
pH: 7.4
With CC(C)C[C@@H]1NC(=O)[C@@H](C)NC(=O)[C@@H](CC(C)C)NC(=O)[C@@H](C(C)C)NC(=O)[C@H](C(C)C)NC(=O)[C@H](CC(C)C)NC(=O)[C@@H](CC(C)C)NC1=O the logD was 0.18.
CCC[C@@H]1NC(=O)CSC[C@@H](C(=O)OCC)N(C)C(=O)[C@H](CC(C)C)NC(=O)[C@@H](C)N(C)C(=O)[C@H](CC(C)C)NC(=O)[C@H](C)N(C)C(=O)[C@H]2CCCN2C(=O)[C@@H](CC(C)C)NC(=O)CN(C)C1=O gave a logD of -0.291.
The logD of CC(C)C[C@@H]1NC(=O)[C@@H](C)NC(=O)[C@H](CCC(=O)N2CCCC2)NC(=O)[C@@H](C(C)C)NC(=O)[C@H](C)NC(=O)[C@H](CC(C)C)NC(=O)[C@@H](CC(C)C)NC1=O is reported as -2.42.
CC(C)C[C@@H]1NC(=O)[C@H](C)NC(=O)[C@@H](CC(C)C)NC(=O)[C@@H](CCC(=O)N2CCCC2)NC(=O)[C@H](CC(C)C)NC(=O)[C@@H](CC(C)C)NC(=O)[C@H](CC(C)C)NC1=O gave a logD of 0.152.
CCC[C@@H]1NC(=O)CSC[C@@H](C(=O)OCC)N(C)C(=O)[C@H](CC(C)C)NC(=O)[C@H](C)N(C)C(=O)[C@H](CC(C)C)NC(=O)[C@H](C)N(C)C(=O)[C@@H](C)N(C)C(=O)[C@@H](CC(C)C)NC(=O)CN(C)C1=O has a logD of 0.0322.
CC(C)C[C@@H]1NC(=O)[C@H](CCC(=O)N2CCCC2)NC(=O)[C@H](CC(C)C)NC(=O)[C@@H](CCC(=O)N2CCCC2)NC(=O)[C@H](CC(C)C)NC(=O)[C@@H](CC(C)C)NC(=O)[C@H](CC(C)C)NC1=O gave a logD of -0.332.
With CC(C)C[C@@H]1NC(=O)[C@H](Cc2cscn2)NC(=O)[C@@H](CC(C)C)NC(=O)[C@H](C(C)C)NC(=O)[C@H](CC(C)C)NC(=O)[C@@H](CC(C)C)NC(=O)[C@H](CC(C)C)NC1=O the logD was 1.19.
With CC(C)C[C@@H]1NC(=O)[C@H](CC(C)C)NC(=O)[C@H](CC(C)C)NC(=O)[C@H](C(C)C)NC(=O)[C@@H](Cc2cscn2)NC(=O)[C@@H](CC(C)C)NC(=O)[C@H](C)NC1=O the logD was -0.208.
The logD of CC(C)C[C@@H]1NC(=O)[C@H](C)NC(=O)[C@H](CCC(=O)N2CCCC2)NC(=O)[C@H](CC(C)C)NC(=O)[C@H](C(C)C)NC(=O)[C@H](CC(C)C)NC(=O)[C@@H](CC(C)C)NC1=O is reported as -0.867.
The logD of CC(C)C[C@@H]1NC(=O)[C@@H](C)NC(=O)[C@H](Cc2cscn2)NC(=O)[C@H](C)NC(=O)[C@H](C(C)C)NC(=O)[C@H](CC(C)C)NC(=O)[C@@H](CC(C)C)NC1=O is reported as -2.
With CC(C)C[C@@H]1NC(=O)[C@H](C)NC(=O)[C@@H](CC(C)C)NC(=O)[C@H](C)NC(=O)[C@H](CC(C)C)NC(=O)[C@H](CC(C)C)NC(=O)[C@H](CC(C)C)NC1=O the logD was -0.215.
CC(C)C[C@@H]1NC(=O)[C@H](CC(C)C)NC(=O)[C@H](CC(C)C)NC(=O)[C@H](C(C)C)NC(=O)[C@H](C(C)C)NC(=O)[C@H](C)NC(=O)[C@H](C)NC1=O gave a logD of -1.28.

Sample 4
Cell line: HaCaT
Concentration: 100 µM
Time: 60 h
CC(=O)OCC(=O)[C@@]1(O)CC[C@H]2[C@@H]3CCC4=CC(=O)C=C[C@]4(C)[C@H]3[C@@H](O)C[C@@]21C gave a viability of 165%.
The viability of CCOC(N)=O is reported as 150%.
The viability of Cc1ncc([N+](=O)[O-])n1CCO is reported as 131%.
For CCC[C@H](NC(=O)[C@@H]1[C@H]2CCC[C@H]2CN1C(=O)[C@@H](NC(=O)[C@@H](NC(=O)c1cnccn1)C1CCCCC1)C(C)(C)C)C(=O)C(=O)NC1CC1, the viability was 18.4%.
The viability of Nc1ccc(S(=O)(=O)Nc2nccs2)cc1 is reported as 88.4%.
The viability of COc1cc2c(Nc3ccc(Br)cc3F)ncnc2cc1OCC1CCN(C)CC1 is reported as 15.7%.
For CC(C(=O)O)c1ccc2c(c1)CC(=O)c1ccccc1S2 (stereo not drawn), the viability was 145%.
